Measured values of several laboratories.
Protocols differ between the studies behind these lines. Values joined by “and” are separate records of one study, mostly repeats; a detail may differ. Numbers after ± are the reported error.
TDP1: Tyrosyl-DNA phosphodiesterase 1 (TDP1, Homo sapiens, UniProt Q9NUW8)
UniProt Q9NUW8, sequence (whole entry, looked up): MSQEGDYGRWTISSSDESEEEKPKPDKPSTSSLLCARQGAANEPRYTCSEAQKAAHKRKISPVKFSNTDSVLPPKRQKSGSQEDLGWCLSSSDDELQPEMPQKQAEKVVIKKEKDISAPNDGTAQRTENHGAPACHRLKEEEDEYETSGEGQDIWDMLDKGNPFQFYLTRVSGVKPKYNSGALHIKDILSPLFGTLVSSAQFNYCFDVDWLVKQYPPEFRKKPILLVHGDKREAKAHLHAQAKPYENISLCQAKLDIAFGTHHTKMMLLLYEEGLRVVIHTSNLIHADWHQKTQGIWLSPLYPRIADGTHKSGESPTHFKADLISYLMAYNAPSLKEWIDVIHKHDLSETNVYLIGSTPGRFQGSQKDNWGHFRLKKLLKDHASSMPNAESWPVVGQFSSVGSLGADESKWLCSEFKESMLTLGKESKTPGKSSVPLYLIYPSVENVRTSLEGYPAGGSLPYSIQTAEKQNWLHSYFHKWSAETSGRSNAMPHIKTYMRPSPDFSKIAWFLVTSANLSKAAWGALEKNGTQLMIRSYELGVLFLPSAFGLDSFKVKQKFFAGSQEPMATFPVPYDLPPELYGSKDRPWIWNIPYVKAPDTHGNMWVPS

COc1ccnc(C(=O)N[C@H]2COC(=O)[C@H](Cc3ccccc3)[C@@H](OC(=O)C(C)C)[C@H](C)OC2=O)c1O
Freundlich coefficient KF (soil adsorption; soil; pH 5.9, organic carbon 0.9 %): 303 mL/g

C=C[C@]1(C)C[C@@H](OC(=O)CSc2ccc(NC(=O)c3ccco3)cc2)[C@]2(C)[C@H](C)CC[C@]3(CCC(=O)[C@H]32)[C@@H](C)[C@@H]1O
apparent clearance (CL/F) (M. gallisepticum-infected chickens, plasma; intramuscular, 80 mg/kg single dose): 71.8 mL/min/kg and 71.9 mL/min/kg

[123I]c1ccc2nc(-c3ccc(-n4ccnn4)nc3)cn2c1
tracer uptake (male Wistar rat, lung; intravenous, 4 MBq, 5 min): 1.03 %ID/g

O=C(NC1CCCC1)c1ccnc(N2Cc3cn(Cc4ccc(F)cc4)nc3C2)n1
half-life (metabolic stability; rat, liver microsomes): 7 min

CCCCN1C(=O)c2cccc3c(NCCCCN4CCOCC4)ccc(c23)C1=O
emission maximum (water; pH 6.0): 554 nm

CC(C(=O)O)n1nc(Cn2cc3cc(OCC[18F])c(Cl)cc3n2)c2ccccc2c1=O (racemic)
tracer uptake (rat, heart; 1 h): 0.11 %ID/g

Cc1[nH]c(=O)c(CNC(=O)c2cc(Cl)c3c(c2C)O[C@@](C)([C@H]2CC[C@H](N(C)C)CC2)O3)c(C)c1O
excretion (healthy men, urine; oral, 200 mg [14C]-valemetostat, 0 to 48 h; reference: dose): 0.79%

C/C(N)=N/C(=N\S(=O)(=O)c1ccc(C(F)(F)F)cc1)N1C[C@H](c2ccccc2)C(c2ccc(Cl)cc2)=N1
Cmax (beagle dog, plasma; oral, 24 mg/kg): 1780 ng/mL

O=C(c1ccccc1)N1C(c2ccc(OCC3CCN(CCCF)C3)cc2)c2ccc(O)cc2CC12CC2 (stereo not shown)
Cmax (C57BL/6J mouse, plasma; oral, 25 mg/kg): 674 ng/mL

O=C(Nc1cnccc1-c1ccc([18F])nc1)c1ccnc(NC(=O)C2CC2)c1
SUV (FVB/NJ mice, both sexes, brain; intravenous, 30 min, median, P-gp inhibitor pretreatment, together with: tariquidar 15 mg/kg iv): 0.183

Cc1[nH]nc2c1N=C(c1ccccc1Cl)c1cnc(N3CCOCC3)cc1N2
Cmax (nude mouse, HCC1806 xenograft, plasma; oral, 5 mg/kg once daily): 110 ng/mL

CC(C)(O)c1ncc([S@](N)(=O)=NC(=O)Nc2c3c(cc4c2CCC4)CCC3)s1
subjects with TEAEs (refers to: reproductive, breast disorders; healthy human; oral, 25 mg, 14 days, ECT formulation, twice daily): 13%

Cc1nc(C)c(-c2ccnc(Nc3cccc(C#N)c3)n2)s1
thermodynamic solubility (aqueous buffer; pH 7.4): < 1.32 µg/mL

O=C(CCc1cn([C@@H]2O[C@H](C[18F])[C@@H](O)[C@H](O)[C@H]2O)nn1)Nc1ccc(-c2nnc(-c3ccccn3)nn2)nc1
muscle uptake (LS174T xenograft, BALB/c nude mouse, muscle; intravenous, 1 h, together with: saline instead of CC49-TCO): 0.001 ± 0.0002 %ID/g

CCCCN1C(=O)c2cccc3c(NCCCN4CCOCC4)ccc(c23)C1=O
emission maximum (methanol): 536 nm

CC[C@H](C)[C@@H]1NC(=O)[C@H](Cc2ccc(O)cc2)NC(=O)CCCSC[C@@H](C(=O)N(CC(=O)N[C@@H](CC(C)C)C(=O)NCC(N)=O)Cc2ccc(F)cc2)NC(=O)[C@H](CC(N)=O)NC(=O)[C@H](CCC(N)=O)NC1=O
adverse drug reactions (human; intranasal, 300 µg single dose): 17%

CN(C)C(=O)c1cccc(N2Cc3cn(Cc4ccc(F)c(Cl)c4)nc3C2)c1
half-life (metabolic stability; rat, liver microsomes): 27 min

CC[C@H](C)[C@H](NC(=O)[C@H](CC(=O)O)NC(C)=O)C(=O)N[C@H](C(=O)N[C@H](C(=O)N[C@@H](CCCNC(=N)N)C(=O)N[C@@H](Cc1ccc(O)cc1)C(=O)N[C@@H](CC(N)=O)C(=O)NCC(=O)N[C@@H](CCCCN)C(=O)N[C@H](C(=O)N[C@@H](Cc1c[nH]c2ccccc12)C(=O)N[C@@H](Cc1c[nH]c2ccccc12)C(=O)N[C@@H](CCCNC(=N)N)C(=O)O)C(C)C)[C@@H](C)O)[C@@H](C)O
β-strand content (circular dichroism; free peptide in solution; concentration not given, 25 °C, no insulin present): 50.1%

CCCCN1C(=O)c2cccc3c(NCCCCCCN4CCOCC4)ccc(c23)C1=O
emission maximum (chloroform): 512 nm

[Mn+2].[O-][Cl+3]([O-])([O-])[O-].[O-][Cl+3]([O-])([O-])[O-].c1ccc(CN2Cc3cccc(n3)CN(Cc3ccccn3)Cc3cccc(n3)C2)nc1
stability constant log β (voltammetry, Nernst equation; Mn(III) complex): 6.31

CCCC[C@H](NC(=O)CNC(=O)CNC(=O)[C@H](CCCCNC(=O)[C@H](CC(=O)O)NC(=O)C(C)c1ccc(CC(C)C)cc1)NC(=O)CN1CCN(CC(=O)O)CCN(CC(=O)O)CCN(CC(=O)O)CC1)C(=O)N[C@H]1CC(=O)NCCCC[C@@H](C(N)=O)NC(=O)[C@H](Cc2c[nH]c3ccccc23)NC(=O)[C@H](CCCNC(=N)N)NC(=O)[C@@H](Cc2ccccc2)NC(=O)[C@H](Cc2c[nH]cn2)NC1=O (stereo partly shown) [lutetium-177 labelled]
excretion (C57 mouse, urine; intravenous, 0.037 MBq, 0.5 h): 43.7 ± 2.68%

O=c1cc(/C=C/c2ccc(N3CCCC3)cc2)oc(/C=C/c2ccc(N3CCCC3)cc2)c1
radiative rate constant (acetonitrile): 3.6e+07 s⁻¹

C=CC(=O)Nc1cc(Nc2nccc(-c3cn(C)c4ccccc34)n2)c(OC)cc1N(C)CCNC
recovery (storage stability; human dried blood spot; 2 h, on ice, MQC level): 95.8%

O=C(Nc1cnccc1-c1ccc([18F])cc1)c1ccnc(NC(=O)C2CC2)c1
SUV (ex vivo gamma counting; GSK-3β transgenic mice, late-stage, heart; intravenous, 120 min, mean, P-gp inhibitor pretreatment, together with: tariquidar 15 mg/kg iv): 0.45

COc1cccc(OC)c1-c1cc(C(=O)NC2(C(=O)O)C3CC4CC(C3)CC2C4)nn1-c1ccc(C(=O)N(C)CCCN(C)C(=O)[C@H](CCCCNC(=O)[C@H](CC(C)C)NC(=O)C2OC2C(=O)O)NC(=O)CN2CCN(CC(=O)[O-])CCN(CC(=O)[O-])CCN(CC(=O)[O-])CC2)cc1C(C)C.[177Lu+3] (mixture of isomers)
tumour-to-pancreas ratio (mouse HT-29 xenograft; 168 h, biodistribution; reference: tumour over pancreas): 20.6

CCCCN1C(=O)c2cccc3c(NCCN4CCOCC4)ccc(c23)C1=O
fluorescence quantum yield (1,4-dioxane): 0.1

CC1(C)OCCc2cc(C(=O)N3CCC(c4nc(-c5ccccc5)n[nH]4)CC3)ccc21
stability half-life (DPBS; 2 µM): > 48 h

O=C(O)c1ccc(Nc2c(-c3ccc(CON=CC4C(=O)Oc5ccc(Cl)cc5C4=O)cc3)nc3cc(-c4ccccc4)ccn23)cc1 (mixture of isomers)
inhibition (TDP1; enzyme activity, inhibitor; 100 µM, unpurified compound): 102%

OC1(C(F)(F)F)CCN(c2nc(Nc3ccnc(C(F)(F)F)c3)nc(-c3cccc(C(F)(F)F)n3)n2)C1 (stereo not shown)
AUC(0-inf) (monkey; oral, 10 mg/kg): 144000 ± 1550 ng·h/mL

O=C(O)c1ccc(Nc2c(-c3ccc(CON=Cc4ccc(-c5ccccc5)cc4)cc3)nc3cc(-c4ccccc4)ccn23)cc1
inhibition (TDP1; enzyme activity, inhibitor; 100 µM): 36.2%

C=C(NC(=O)c1csc(-c2nc3c(cc2O)-c2nc(cs2)C(=O)NC(C(C)O)C(=O)NC(=C(C)OC)c2nc(cs2)C(=O)NC2c4nc(cs4)C(=O)NC(COC(=O)c4c5c6c(cccc6n4O)COC(=O)C(OC4CC(C)(O)C(N(C)C)C(C)O4)C2OC5)c2nc-3cs2)n1)C(N)=O (stereo not shown)
AUC(0-last) (Sprague-Dawley rat, female, plasma; intravenous infusion, 2 mg/kg single dose): 923 ng·h/mL

O=C1NC(=O)/C(=C/c2ccc3ncnc(N4CCC(F)CC4)c3n2)S1
body weight (NSG mice; dose not given, day 4): 18.5 g and 20.8 g and 21.6 g and 22.5 g

CS(=O)(=O)c1cc(Cl)cc(-c2cc(Cl)c(Cl)cc2Cl)c1Cl
dose fraction in skim milk (whole cow milk; 500 nM nominal): 7.54%

O=C(NS(=O)(=O)c1cccs1)c1cc2ccccc2n1Cc1ccc(Br)c2ccccc12
plasma concentration (Sprague-Dawley rat, male; oral, 2 mg/kg, 6 h): 110 ng/mL and 127 ng/mL

CC(=O)N([O-])CCCCCNC(=O)CCC(=O)N([O-])CCCCCNC(=O)CCC(=O)N([O-])CCCCCN.[89Zr+4]
intact complex (radio-TLC; aqueous buffer; 1 d, pH 7.2, 37 °C, 89Zr-labelled complex, together with: MgCl2 10-fold excess): 98.4 ± 1%

Cc1cc(-c2ccc(C(=O)[C@@H]3CCCC[C@H]3C(=O)Nc3cnn4c3C(=O)NCC4)cc2)[nH]n1
cumulative radioactivity recovery (human, urine; oral, 200 mg, 0-168 h; reference: dose): 4.93% and 4.97% and 6.7% and 5.62% and 6.33% and 6.8%

Cc1nc(N)nc2c1C(=O)N[C@@H](c1ccc(F)cc1-c1cccc(OCC[18F])n1)C2
carcass uptake (ex vivo biodistribution; C57BL/6 mouse; intravenous, 1 MBq, 30 min, baseline, vehicle): 60.9 ± 0.7 %ID

Cc1cnc2nc1Nc1cccc(c1)COC/C=C/COCc1cc(ccc1OCCN1CCOCC1)N2
body weight (BALB/c mice, rhEPO-induced polycythemia; 75 mg/kg, day 4): 18.9 g and 17.4 g and 19.1 g and 19.3 g and 20.4 g and 17.9 g

CN1Cc2c(NCc3ccc(CN4CCN(c5ccc(C#N)c(F)c5)CC4)cc3)cccc2C(=O)N1C1CCC(=O)NC1=O (stereo not shown)
organ weight (mouse xenograft, stomach; dose not given): 122 mg

COc1cccc(OC)c1-c1cc(C(=O)NC2(C(=O)O)C3CC4CC(C3)CC2C4)nn1-c1ccc(C(=O)N(C)CCCN(C)CCCN(C)C(=O)[C@H](CCCCNC(=O)[C@H](CC(C)C)NC(=O)C2OC2C(=O)O)NC(=O)CN2CCN(CC(=O)[O-])CCN(CC(=O)[O-])CCN(CC(=O)[O-])CC2)cc1C(C)C.[177Lu+3] (mixture of isomers)
tumour-to-spleen ratio (mouse HT-29 xenograft; 4 h, biodistribution; reference: tumour over spleen): 15.9

CCCCN1C(=O)c2cccc3c(NCCCCCCCCN4CCOCC4)ccc(c23)C1=O
emission maximum (DMF): 527 nm

COc1cccc(OC)c1-c1cc(C(=O)NC2(C(=O)O)C3CC4CC(C3)CC2C4)nn1-c1ccc(C(=O)NCCNC(=O)[C@H](CCCCNC(=O)[C@H](CC(C)C)NC(=O)C2OC2C(=O)O)NC(=O)CN2CCN(CC(=O)[O-])CCN(CC(=O)[O-])CCN(CC(=O)[O-])CC2)cc1C(C)C.[177Lu+3] (mixture of isomers)
tumour-to-spleen ratio (mouse HT-29 xenograft; 72 h, biodistribution; reference: tumour over spleen): 7.22

CCCCN1C(=O)c2cccc3c(NCCCCCN4CCOCC4)ccc(c23)C1=O
emission maximum (dioxane): 506 nm

Repeated from above:
CN(C)C(=O)c1cccc(N2Cc3cn(Cc4ccc(F)c(Cl)c4)nc3C2)c1
half-life (metabolic stability; rat, liver microsomes): 27 min

CC[C@H](C)[C@H](NC(=O)[C@H](CC(=O)O)NC(C)=O)C(=O)N[C@H](C(=O)N[C@H](C(=O)N[C@@H](CCCNC(=N)N)C(=O)N[C@@H](Cc1ccc(O)cc1)C(=O)N[C@@H](CC(N)=O)C(=O)NCC(=O)N[C@@H](CCCCN)C(=O)N[C@H](C(=O)N[C@@H](Cc1c[nH]c2ccccc12)C(=O)N[C@@H](Cc1c[nH]c2ccccc12)C(=O)N[C@@H](CCCNC(=N)N)C(=O)O)C(C)C)[C@@H](C)O)[C@@H](C)O
β-strand content (circular dichroism; free peptide in solution; concentration not given, 25 °C, no insulin present): 50.1%

CCCCN1C(=O)c2cccc3c(NCCCCCCN4CCOCC4)ccc(c23)C1=O
emission maximum (chloroform): 512 nm

[Mn+2].[O-][Cl+3]([O-])([O-])[O-].[O-][Cl+3]([O-])([O-])[O-].c1ccc(CN2Cc3cccc(n3)CN(Cc3ccccn3)Cc3cccc(n3)C2)nc1
stability constant log β (voltammetry, Nernst equation; Mn(III) complex): 6.31
